Assay results pooled from the literature.
Parts stem from different laboratories: compare values within a part only. Positions count from the first letter of the parent shown.

Sample 1 — method: RNA Bind-n-Seq; molecule type: RNA; medium: in vitro; tested at: 365 nM; reference: no-protein control; reading: higher = stronger binding
Target: RNA binding protein fox-1 homolog 2, RRM domain, GST-SBP tag (RBFOX2, Homo sapiens, UniProt O43251-10, residues 100-194)
Notes: natural RNA segment, single round, ends assumed
All sequences stand within: GGGAGUUCUACAGUCCGACGAUC … UGGAAUUCUCGGGUGCCAA
Target sequence (chain): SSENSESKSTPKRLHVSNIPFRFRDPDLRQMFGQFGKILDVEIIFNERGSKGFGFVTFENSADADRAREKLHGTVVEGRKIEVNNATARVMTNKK
Oligonucleotide	RBNS enrichment (R)
GGGGAGUGGAGGGUGGCCGGGCAGGUCCUGCCGGCGCAGGGAGCCCUCUGCCCUUCACACUCUCCUCCAAAAGAGCCUCCAUCUGUAAGGAAGCAGGUCUCCGCGAGGGG	0.204
GUAGUCCUGUGGAGGAGGAGGGUCCUCCCAGGAGGACCUGUGUGUUCUUUCAAAGCCUUAGAGUGGCGCUACACCGGCCAGCUGGCUUAGCUGCAGGAAGGCCUCUUAGC	0.401
UAGGUGGGUGGUGUGCAUAGGCCACGUGUGCCCCACAUAUGCAGGGGGUGCCCCACACAGCUAGAGCGGCCAGGAGAGCGCCUCCUAACCACCAGCCGUUCCUGAUCUCA	0.315
CGGCUGUUCCACCCACCCCUCUUUAUUCUGGAGCAUAUCAGGGAAAGAAAAGUUGAUGAUAGAUUGCCUUCACCCUCACAGCGCACAAAUAAAGCUACGAUGCCAACUUU	0.864
GGCAGCCCCAUCGAGCUGGACUGACUGGCCAGGCCACGUGGAGACACCACGGUCGACGACGGCUGGAGGGACGUUUCAGAGGCGAGUCCUGGGUGGCUCCUCGCCUUGGG	0.528
AGUGUCUUACUCUACUGGAUGCUGGAUAGAAAUUUAGGGUAACUUCUGACAAAGUGUGCCGGUCUAACAAUAAAAUAGGGUUUUGUAAUCUUCUGGUUGGUAAAAGAUAU	0.493
CCUCAUUCGGGCAGAGGGAAAUACGGGACCCGGUCUCUGCCUCCUGGCUGCCCUCCUCCCUGGCUGUGUAAAUAGUCUCCCUAUCCCACGAGGGGGCUUUGAUGGCCCUG	0.406
CCCAGGAAUGCCGUGAAAGGAGACAAGGUCUGCCCGACCCAUGUCUAUGCUCUACCCCCAGGGUAGCAUCUCAGCUUCCGAACCCUGGGCUGUUUCCUUAGUCUUCAUUU	1.4

Sample 2 — target: UBE2D2 UBC core domain (UniProt P62837); method: yeast two-hybrid; medium: yeast; notes: mostly zero background; reference: not given; reading: higher = stronger interaction
Chain of UniProt P62837 (whole entry, looked up): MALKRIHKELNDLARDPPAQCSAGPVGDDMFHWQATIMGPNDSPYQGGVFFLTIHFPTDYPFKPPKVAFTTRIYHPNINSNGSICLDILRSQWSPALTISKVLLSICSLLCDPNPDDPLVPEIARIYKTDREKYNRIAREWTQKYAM
B1: NSMCE1 RING domain (UniProt Q8WV22); chain RETYPDAVKICNICHSLLIQGQSCETCGIRMHLPCVAKYFQSNAEPRCPHCNDYWPHEIPKV
B2: RFPL2 RING domain (UniProt O75678); chain MAALFQEASSCPVCSDYLEKPMSLECGCAVCLKCINSLQKEPHGEDLLCCCSSMVSRKNKIRR
B3: UBE4A RING domain (UniProt Q14139); chain LQQQEEETYADACDEFLDPIMSTLMCDPVVLPSSRVTVDRSTIARHLLSDQTDPFNRSPLTMDQIRPNTELKEKIQRWLAERKQQKEQLE
Molecule	lacZ reporter activity
B1 (NSMCE1 RING domain)	0
FLKKLEQSFMCVCCQELVYQPVTTECFHNVCKDCLQRSFKAQVFSCPACRHDLGQNYIMI (UHRF2 RING domain (UniProt Q96PU4))	9140
B2 (RFPL2 RING domain)	0
B3 (UBE4A RING domain)	2410
KIKDLNEHIVCCLCAGYFVDATTITECLHTFCKSCIVKYLQTSKYCPMCNIKIHETQPLL (PCGF1 RING domain (UniProt Q9BSM1))	0

Sample 3 — observed: peptide-MHC binding; molecule type: peptide; tested at: concentration not given
Target: HLA class I histocompatibility antigen, A alpha chain, allele A*80:01 (Homo sapiens, UniProt P04439)
Molecule	binding
MGMEQTMSV	inactive
LESLTDREL	inactive
FLAAECPFL	inactive
YYWPRPRRY	inactive
ITDEINQIK	inactive

Sample 4 — target: CCNA2, cyclin fold, Cln2 fusion (human); method: yeast growth competition, sequencing; medium: yeast; notes: strong parent motif; reference: not given; reading: higher = stronger binding; starting sequence: viral docking peptide; PGASRRLFGSSAD
Substitution	normalised enrichment score
L7A	0.184
R6A	0.657
P1A	3.04
R5K	1.41
S10A	2.04
S4A	4.08

A few entries again (sample 1):
Oligonucleotide	RBNS enrichment (R)
UAGGUGGGUGGUGUGCAUAGGCCACGUGUGCCCCACAUAUGCAGGGGGUGCCCCACACAGCUAGAGCGGCCAGGAGAGCGCCUCCUAACCACCAGCCGUUCCUGAUCUCA	0.315
AGUGUCUUACUCUACUGGAUGCUGGAUAGAAAUUUAGGGUAACUUCUGACAAAGUGUGCCGGUCUAACAAUAAAAUAGGGUUUUGUAAUCUUCUGGUUGGUAAAAGAUAU	0.493
CGGCUGUUCCACCCACCCCUCUUUAUUCUGGAGCAUAUCAGGGAAAGAAAAGUUGAUGAUAGAUUGCCUUCACCCUCACAGCGCACAAAUAAAGCUACGAUGCCAACUUU	0.864
CCUCAUUCGGGCAGAGGGAAAUACGGGACCCGGUCUCUGCCUCCUGGCUGCCCUCCUCCCUGGCUGUGUAAAUAGUCUCCCUAUCCCACGAGGGGGCUUUGAUGGCCCUG	0.406
